Results from different studies.
Several values in a cell are separate wells, animals, samples, runs or records. Numbers after ± are the reported error.
WD repeat-containing protein 91 WD40 domain, residues 392–747: WD repeat-containing protein 91, WD40 domain, residues 392–747 (Homo sapiens, UniProt A4D1P6)
Genome polyprotein NS3 helicase domain: Genome polyprotein, NS3 helicase domain (Hepatitis C virus genotype 1b, UniProt Q9WMX2)
WD repeat-containing protein 91: WD repeat-containing protein 91 (Homo sapiens, UniProt A4D1P6)
ESR1: Estrogen receptor (ESR1, Homo sapiens, UniProt P03372)
UniProt P03372, sequence (whole entry, looked up): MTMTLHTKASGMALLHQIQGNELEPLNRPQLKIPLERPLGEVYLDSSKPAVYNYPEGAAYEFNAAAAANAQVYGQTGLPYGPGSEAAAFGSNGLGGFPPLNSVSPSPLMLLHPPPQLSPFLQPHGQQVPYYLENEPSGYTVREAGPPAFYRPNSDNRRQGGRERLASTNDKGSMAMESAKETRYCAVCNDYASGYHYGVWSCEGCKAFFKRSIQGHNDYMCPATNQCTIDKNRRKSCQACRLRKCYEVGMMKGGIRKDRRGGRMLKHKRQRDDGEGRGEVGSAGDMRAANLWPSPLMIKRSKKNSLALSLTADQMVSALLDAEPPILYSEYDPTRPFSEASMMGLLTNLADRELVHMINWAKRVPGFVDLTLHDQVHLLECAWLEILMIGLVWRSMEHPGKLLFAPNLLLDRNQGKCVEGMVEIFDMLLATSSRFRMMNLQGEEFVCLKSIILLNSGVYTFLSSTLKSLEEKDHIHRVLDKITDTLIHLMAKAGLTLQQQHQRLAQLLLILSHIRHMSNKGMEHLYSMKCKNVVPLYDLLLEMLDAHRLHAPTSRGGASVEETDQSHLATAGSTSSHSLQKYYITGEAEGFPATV
CALM1 Ca2+-bound C-lobe: Calmodulin-1, Ca2+-bound C-lobe (CALM1, Homo sapiens, UniProt P0DP23)
UniProt Q16774, sequence (whole entry, looked up): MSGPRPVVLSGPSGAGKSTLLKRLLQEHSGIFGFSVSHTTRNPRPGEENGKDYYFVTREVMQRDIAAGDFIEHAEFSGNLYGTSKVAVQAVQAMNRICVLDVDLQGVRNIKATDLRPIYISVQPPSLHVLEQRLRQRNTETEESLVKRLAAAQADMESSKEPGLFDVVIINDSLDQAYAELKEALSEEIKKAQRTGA
UniProt O76090, sequence (whole entry, unmodified, looked up): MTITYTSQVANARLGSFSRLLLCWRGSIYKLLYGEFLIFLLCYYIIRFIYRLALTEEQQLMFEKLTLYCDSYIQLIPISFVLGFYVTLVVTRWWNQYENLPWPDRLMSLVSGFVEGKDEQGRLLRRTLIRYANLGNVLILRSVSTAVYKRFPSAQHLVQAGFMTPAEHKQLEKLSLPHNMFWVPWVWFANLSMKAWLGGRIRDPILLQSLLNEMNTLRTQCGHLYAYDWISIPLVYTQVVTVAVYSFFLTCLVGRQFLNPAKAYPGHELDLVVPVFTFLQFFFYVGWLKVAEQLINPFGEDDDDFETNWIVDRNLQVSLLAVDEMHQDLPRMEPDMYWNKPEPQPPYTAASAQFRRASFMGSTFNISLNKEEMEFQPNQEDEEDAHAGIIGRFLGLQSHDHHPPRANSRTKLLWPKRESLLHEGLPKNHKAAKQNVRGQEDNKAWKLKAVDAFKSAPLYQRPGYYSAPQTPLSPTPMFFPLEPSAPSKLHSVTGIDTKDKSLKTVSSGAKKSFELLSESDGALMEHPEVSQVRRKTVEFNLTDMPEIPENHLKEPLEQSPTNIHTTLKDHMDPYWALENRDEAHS
UniProt P31941, sequence (whole entry, looked up): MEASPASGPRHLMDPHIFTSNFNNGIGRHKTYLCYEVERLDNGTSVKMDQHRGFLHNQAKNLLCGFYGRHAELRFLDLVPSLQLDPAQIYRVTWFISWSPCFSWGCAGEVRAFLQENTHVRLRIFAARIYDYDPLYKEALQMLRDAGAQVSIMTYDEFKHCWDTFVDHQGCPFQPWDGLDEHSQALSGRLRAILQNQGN
UniProt P35462, sequence (whole entry, looked up): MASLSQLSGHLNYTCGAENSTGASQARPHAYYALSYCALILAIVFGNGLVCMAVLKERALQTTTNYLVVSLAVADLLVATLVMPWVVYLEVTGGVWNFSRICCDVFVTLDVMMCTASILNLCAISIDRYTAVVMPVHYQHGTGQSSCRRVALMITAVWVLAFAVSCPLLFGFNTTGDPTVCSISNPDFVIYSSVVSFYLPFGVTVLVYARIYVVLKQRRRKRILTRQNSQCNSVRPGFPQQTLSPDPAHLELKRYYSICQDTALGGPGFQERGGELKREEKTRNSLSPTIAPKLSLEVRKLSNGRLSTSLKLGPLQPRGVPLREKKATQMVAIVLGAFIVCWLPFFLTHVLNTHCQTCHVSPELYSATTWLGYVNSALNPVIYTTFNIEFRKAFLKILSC

Structure (SMILES)	target	test	test system	conditions	how to read	quantity	value
Oc1ccc(/C=C/c2cc(O)cc(O)c2)cc1	O-methyltransferase (Sorghum bicolor, UniProt A0A1B6PFV1)	biolayer interferometry	–	with: saturating SAH	–	cooperativity factor σ	12
N#Cc1ccc2[nH]cc(CCCCN3CCN(c4ccc5oc(C(N)=O)cc5c4)CC3)c2c1	SLC6A4 (Homo sapiens, UniProt P31645, F556A)	[3H]5-HT uptake, inhibitor	COS-7	–	–	Hill coefficient	1.23 ± 0.16
COc1cc(/C=C/C(=O)C(=Cc2ccccc2)C(=O)/C=C/c2ccc(O)c(OC)c2)ccc1O	haemin	binding, isothermal titration calorimetry	–	pH 7.4, 37 °C	–	ΔG	-7.53 ± 0.402 kcal/mol
N#Cc1cccc(OCc2cn(-c3ccc(C(=O)N4CCC(C#N)CC4)cc3)nn2)c1	WD repeat-containing protein 91 WD40 domain, residues 392–747	binding, SPR single-concentration screen	–	45 µM	–	SPR response	9.5 RU and 15.1 RU
O=C1c2c(O)ccc(O)c2C(=O)c2c(NCCNCCO)ccc(NCCNCCO)c21	Genome polyprotein NS3 helicase domain	DNA binding, inhibitor	hepatitis C virus	100 µM, with: Cy5-dT15 DNA	–	inhibition	119%
CC1(C)C(/C=C/C=C2/N(CCCc3ccccc3)c3ccc(Cl)cc3C2(C)C)=[N+](CCCc2ccccc2)c2ccc(Cl)cc21.[Br-]	PRMT3 (Homo sapiens, UniProt O60678)	inhibitor, filter binding	–	with: R4 peptide substrate	–	Hill coefficient	6.54
N=C(NC1CCN(c2ncnc3c2nc(-c2ccccc2Cl)n3-c2ccc(Cl)cc2)CC1)c1ccc(F)cc1	CNR1 (Homo sapiens, UniProt P21554)	binding, [3H]CP55940 displacement	–	–	relative to: Ki CB2 over Ki CB1	selectivity ratio	> 7
O=C(NC1CCCS(=O)(=O)c2ccccc21)c1ccc2nc(O)cnc2c1 (centres unmarked)	WD repeat-containing protein 91	binding, SPR steady state	–	3.75 µM	–	SPR response	20.6 RU
Nc1nc2c(cnn2CCc2ccccc2)c2nc(-c3ccco3)nn12	Genome polyprotein NS3 helicase domain	DNA binding, inhibitor	hepatitis C virus	100 µM, with: Cy5-dT15 DNA	–	inhibition	0%
N=C(N)N	N-alpha-acetyltransferase 80 (NAA80, Homo sapiens, UniProt Q93015)	substrate, DTNB	–	2 mM, 30 min, 37 °C, with: acetyl-CoA 500 µM	–	product formation	1.36 µM
Oc1cc2c(cc1O)CN(C(=S)NCCc1ccc(Cl)cc1)CCC2	Genome polyprotein NS3 helicase domain	DNA binding, inhibitor	hepatitis C virus	100 µM, with: Cy5-dT15 DNA	–	inhibition	0%
Nc1nc2c(ncn2[C@@H]2O[C@@H]3COP(=O)(O)O[C@H]3[C@H]2O)c(=O)[nH]1	Cone cGMP-gated channel (Morone saxatilis, UniProt Q3I0N1+Q3I0N2)	channel current, agonist, suction electrode	cone outer segments	with: 2 µM Ca2+	–	Hill coefficient	2.21 ± 0.31
COc1cc(O)ccc1/C=C/C(=O)c1ccc(O)cc1	ESR1	array formation	PRL-HeLa	–	relative to: EC50 ERβ over EC50 ERα	selectivity ratio	2.5
CC[C@H](C)[C@H](NC(=O)[C@H](CCCCN)NC(=O)CNC(=O)[C@@H](NC(=O)[C@@H](NC(=O)[C@H](CCSC)NC(=O)[C@H](Cc1c[nH]cn1)NC(=O)CN)[C@@H](C)O)C(C)C)C(=O)N[C@@H](Cc1ccc(O)cc1)C(=O)N[C@@H](C)C(=O)N[C@@H](C)C(=O)N[C@@H](CCSC)C(=O)N[C@@H](CCSC)C(=O)N[C@H](C(=O)N[C@@H](CCSC)C(=O)N[C@@H](CCC(=O)O)C(=O)N[C@@H](C)C(=O)N[C@@H](Cc1ccc(O)cc1)C(=O)N[C@@H](CCCNC(=N)N)C(=O)N[C@@H](CCC(N)=O)C(=O)N[C@@H](CO)C(=O)N[C@@H](CCCCN)C(=O)N[C@@H](C)C(=O)N[C@@H](CCCCN)C(=O)N[C@@H](CCCCN)C(=O)N[C@@H](CC(C)C)C(=O)N[C@@H](CCC(N)=O)C(=O)N[C@@H](C)C(=O)N[C@@H](CCSC)C(=O)N[C@@H](CCCNC(=N)N)C(=O)O)[C@@H](C)CC	CALM1 Ca2+-bound C-lobe	binding, isothermal titration calorimetry	–	pH 7.4, 15 °C, C-lobe, CaV2.1 IQ domain, with: Ca2+	–	ΔS	25.6 ± 1.2 cal/mol/K
C[C@]12CC[C@@H]3c4ccc(O)cc4C[C@@H](CCCCCCCCC[S+]([O-])CCCC(F)(F)C(F)(F)F)[C@H]3[C@@H]1CC[C@@H]2O (some centres unmarked)	ESR1	antagonist, CALUX reporter	U2OS	3e-05 µg/mL	–	antagonist response	25.2%
CC[n+]1c(/C=C/C=C2/N(C)c3ccccc3C2(C)C)sc2ccccc21.[I-]	Genome polyprotein NS3 helicase domain	DNA binding, inhibitor	hepatitis C virus	100 µM, with: Cy5-dT15 DNA	–	inhibition	1%

Structure (SMILES)	target	test	test system	conditions	how to read	quantity	value
Nc1nc2c(ncn2[C@@H]2O[C@H](COP(=O)(O)O)[C@@H](O)[C@H]2O)c(=O)[nH]1	GUK1 (Homo sapiens, UniProt Q16774)	enzyme activity, NADH-coupled	–	62.5 µM, with: KCl 150 mM	–	reaction velocity	0.0684 µM/s and 0.086 µM/s and 0.0705 µM/s
CCN1CCCC1CNC(=O)c1cc(S(N)(=O)=O)ccc1OC (centres unmarked)	DRD3 (Homo sapiens, UniProt P35462)	cAMP accumulation, antagonist, BRET CAMYEL	–	–	–	maximal inhibition	99 ± 2%
Cl.c1ccc2nc(C3=NCCN3)ccc2c1	Genome polyprotein NS3 helicase domain	DNA binding, inhibitor	hepatitis C virus	100 µM, with: Cy5-dT15 DNA	–	inhibition	0%
Nc1ncnc2c1ncn2[C@@H]1O[C@H](COP(=O)(O)OP(=O)(O)OP(=O)(O)O)[C@@H](O)[C@H]1O	CKMT1A (Homo sapiens, UniProt P12532, E264A)	substrate, ADP-Glo luminescence	–	pH 8.5, forward reaction, E226A mutant, with: second substrate in excess	–	Km	230 ± 30 µM
COc1cc2ncnc(Nc3cccc(Cl)c3)c2cc1OC	Genome polyprotein NS3 helicase domain	DNA binding, inhibitor	hepatitis C virus	100 µM, with: Cy5-dT15 DNA	–	inhibition	0%
Nc1ncnc2c1ncn2[C@@H]1O[C@H](COP(=O)(O)CP(=O)(O)OP(=O)(O)O)[C@@H](O)[C@H]1O	P2X purinoceptor 1 (P2RX1, Homo sapiens, UniProt P51575, D170A)	calcium influx	–	31.6 µM	relative to: ionomycin response	calcium influx	100%
O=C(O)C(O)c1ccccc1 (centres unmarked)	Uncharacterized protein (Chromohalobacter israelensis, UniProt Q1QT90)	binder, thermal shift	–	–	–	delta Tm	9.4 °C
CCC1(O)CCCN(C(=O)c2ccc(-c3ccc(F)c(NC(=O)CCl)c3)cc2)C1 (centres unmarked)	DNA dC->dU-editing enzyme APOBEC-3A (Homo sapiens, UniProt P31941)	covalent adduct, intact protein MS	–	3 h, 1-fold, 25 µM	–	unmodified protein	30% and 37%
CC[C@H](C)[C@H](NC(=O)[C@H](C)NC(=O)[C@H](CCSC)NC(=O)[C@H](C)NC(=O)[C@H](C)NC(=O)[C@H](Cc1ccc(O)cc1)NC(=O)[C@@H](NC(=O)[C@H](CCCCN)NC(=O)CNC(=O)[C@@H](NC(=O)[C@@H](NC(=O)[C@H](CCSC)NC(=O)[C@H](Cc1c[nH]cn1)NC(=O)CN)[C@@H](C)O)C(C)C)[C@@H](C)CC)C(=O)N[C@@H](CCSC)C(=O)N[C@@H](CCC(=O)O)C(=O)N[C@@H](Cc1ccc(O)cc1)C(=O)N[C@@H](Cc1ccc(O)cc1)C(=O)N[C@@H](CCCNC(=N)N)C(=O)N[C@@H](CCC(N)=O)C(=O)N[C@@H](CO)C(=O)N[C@@H](CCCCN)C(=O)N[C@@H](C)C(=O)N[C@@H](CCCCN)C(=O)N[C@@H](CCCCN)C(=O)N[C@@H](CC(C)C)C(=O)N[C@@H](CCC(N)=O)C(=O)N[C@@H](C)C(=O)N[C@@H](CCSC)C(=O)N[C@@H](CCCNC(=N)N)C(=O)O	CALM1 Ca2+-bound C-lobe	binding, isothermal titration calorimetry	–	pH 7.4, 15 °C, C-lobe, CaV2.1 IQ domain, with: Ca2+	–	ΔS	22.1 ± 2.6 cal/mol/K
[O-][S+]1CCCCS1 (centres unmarked)	SOD1 (Homo sapiens, UniProt P00441, G94A)	item: SOD1 dimer	SOD1 G93A transgenic mice, brain	iv, 10 mg/kg once daily	–	target engagement	64%
Nc1ccc(C(=O)O)cc1	BEST1, with wild-type BEST1 (Homo sapiens, UniProt O76090, A10T)	whole-cell patch clamp	HEK293 co-expressing WT and A10T mutant	concentration not given, membrane potential 40 mV	–	current density	21.6 pA/pF and 10 pA/pF and 12.8 pA/pF and 5.93 pA/pF and 13.4 pA/pF and 5.25 pA/pF
CN1CCCCC1Cc1cn(Cc2ccc(C(=O)N3CCC(C#N)CC3)cc2)nn1 (centres unmarked)	WD repeat-containing protein 91 WD40 domain, residues 392–747	SPR	–	45 µM	–	binding	-20% and -6%
Oc1ccc2c(c1)OC[C@H]1c3cc4c(cc3O[C@@H]21)OCO4	ESR1	array formation	PRL-HeLa	–	relative to: EC50 ERβ over EC50 ERα	selectivity ratio	0.783
Cn1cc(-n2cnc3c(NCc4nc5cc(Cl)c(Cl)cc5[nH]4)nc(N4CCOCC4)nc32)cn1	Cyclin-dependent kinase 12, with cyclin K (CDK12, Homo sapiens, UniProt Q9NYV4)	kinase activity, inhibitor, ADP-Glo	–	0.6667 µM	–	inhibition	83.9%
N#Cc1cccc2c1CC[C@H]2NC(=O)c1ccc(-c2ccco2)[nH]1	WD repeat-containing protein 91 WD40 domain, residues 392–747	SPR	–	45 µM	–	binding	45% and 33%
CCn1c(=O)[nH]c2cc(C(=O)NC(c3ccc(F)cc3)c3cnn(C)c3)ccc2c1=O (centres unmarked)	WD repeat-containing protein 91	binding, SPR steady state	–	0.2344 µM	–	SPR response	2.77 RU

For quick reference, copied from above:
Structure (SMILES)	target	test	test system	conditions	how to read	quantity	value
[O-][S+]1CCCCS1 (centres unmarked)	SOD1 (Homo sapiens, UniProt P00441, G94A)	item: SOD1 dimer	SOD1 G93A transgenic mice, brain	iv, 10 mg/kg once daily	–	target engagement	64%
CC[n+]1c(/C=C/C=C2/N(C)c3ccccc3C2(C)C)sc2ccccc21.[I-]	Genome polyprotein NS3 helicase domain	DNA binding, inhibitor	hepatitis C virus	100 µM, with: Cy5-dT15 DNA	–	inhibition	1%
Nc1nc2c(cnn2CCc2ccccc2)c2nc(-c3ccco3)nn12	Genome polyprotein NS3 helicase domain	DNA binding, inhibitor	hepatitis C virus	100 µM, with: Cy5-dT15 DNA	–	inhibition	0%
